Published values pooled from the literature.
Parts stem from different laboratories: compare values within a part only.

Study 1 — method: RNA Bind-n-Seq; form: RNA; medium: in vitro; concentration: 365 nM; reference: no-protein control; reading: higher = stronger binding
Target: RNA binding protein fox-1 homolog 2, RRM domain, GST-SBP tag (RBFOX2, Homo sapiens, UniProt O43251-10, residues 100-194)
Setting: natural RNA segment, single round, ends assumed
Residues (chain): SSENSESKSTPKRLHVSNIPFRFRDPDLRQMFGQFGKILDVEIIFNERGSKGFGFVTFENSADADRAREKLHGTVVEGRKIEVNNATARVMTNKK
Oligonucleotide	RBNS enrichment (R)
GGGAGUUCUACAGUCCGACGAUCUUUGCAGACCCUACACAGCGGCCCUGGAUAGUGAAUUUUACCCAGGUUUUUAGGGGUCAAGGAGGCCUCUAGUGACACAGGAACAGCUGUGGCCCUUUUUUGAAGCUACUUGGAAUUCUCGGGUGCCAA	0.325
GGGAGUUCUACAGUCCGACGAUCUCUUUGGUAAUGAAACAAUAACACUCAAUGAAGGAUGUAUUAAAAUUUUUGACUUAAUUUUGAAAUCGUAUAUAUGAGCUAUACUUUAACAUUAUGAGAGAAAAGCAUAAUGGAAUUCUCGGGUGCCAA	0.434
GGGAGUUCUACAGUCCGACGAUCAAUAUUUUUAACUUGGGGCAGGAAGAAGGGAGCAGCAGAGAAUUGACUAGAUAUAGCACCUAUUAAAAGAGAACUCUUGCUUCUUCUGAGAUUUUUCAAGCUGUGCUUUGUGGAAUUCUCGGGUGCCAA	0.902
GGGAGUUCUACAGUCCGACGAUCCCCAACCCUUUCUGAUAUUGGCUAAGACCUCAGUAUCUCCCAGUAGCACUUCUUCUGGAUUUGAAUUCAAAUGUCAUUCUUAACAUUUCUGUUGAUGCUUCUUUGAAAAUUGGAAUUCUCGGGUGCCAA	0.646
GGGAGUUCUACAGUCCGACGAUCGCUCAGACCAUUAUUUAUUUCUUGAGUGUAUAUAAGUAUAAAGACAAAUCUAUGGUUAGUUUUUACUUUAAGAUUAACCGAUUUCAAGAUUUACAAAAAAAAACAACAAAUGGAAUUCUCGGGUGCCAA	0.569
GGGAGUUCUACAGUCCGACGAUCGUCCUCGGAAUCUCUUUUCUAUUCACAGCCCUUCUAUAGCCUUGCUCUGAUGGUUUUAGCACUUGAUCUGAGAGAAGCUUGCCCAUAAUUUAAUGCUUCUUUUCCUUAAAUGGAAUUCUCGGGUGCCAA	1.34
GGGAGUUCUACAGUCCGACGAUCUCAGACUGAUGUCAGCCAGCCUUCUUGGAACACAUUGCUAUUCAUUGUGGAUGCCACACAGUCCAUCUGGGGUGCCCUGUGCCUCCCAUUUUCACAGCCGCCCACUGUUGUGGAAUUCUCGGGUGCCAA	0.203
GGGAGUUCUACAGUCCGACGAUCUCUCUAAGAGGUGUAUGAAAAACCCAUCUUGCAAAAGAGACCAAAAUAUUAGACACAAUCGUUCCCAUUCCUGACUCUUCAAUGGAAAAGGAAGGUACAGAUGUUUACAGUGGAAUUCUCGGGUGCCAA	0.239
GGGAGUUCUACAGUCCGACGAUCUUUUUUCCCCUAAAUGUAUUGCAUCAAGCCUCAGUGCUUAUGGAGUGCAGUGGUCUUCAUCUUCCCCAACUUGCUUCUCAGAGCUGGGAUGUAUUCCAGAGCCUGAUGUUUGGAAUUCUCGGGUGCCAA	0.592
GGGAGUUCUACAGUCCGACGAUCUCAAGAACACAAACGUUUUACCCCCUAUUGUAUGCCUUUGCUGAGGGUAUGUCCUGCUCCUUUCCACCAGUGAUUUGUAUUAAGACAGCACUUAUAUUGUACAAUACUUCUGGAAUUCUCGGGUGCCAA	4.35
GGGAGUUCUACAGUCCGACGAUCAGAAAGAUCUUUUUUUAUUUUUUUCAUAUUUGGCAAUGAUGUCAGCUCCAUUUUAAAAAUCUCCAAUAACCAGGUAAGAAAAGAAAGAAAAAAAUUAAGAAACAACAGGCUGGAAUUCUCGGGUGCCAA	0.759
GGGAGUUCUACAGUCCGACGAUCUCAGUCCCACUUGGUUUCUGAGUGCCUCUUUUCUCUUCUGUGUCUUCUCUUCCCUUGUCCUUCCUCCUUGGCUCUUCUGUCCUUUCCUUCCCUGUGCAGACAGGACUAUGUGGAAUUCUCGGGUGCCAA	0.445

Study 2 — method: protein binding microarray; form: double-stranded DNA, one strand shown; medium: in vitro; concentration: not given; reference: not given; reading: higher = stronger binding
Target: Histone acetyltransferase KAT6A, winged helix 1, GST fusion (KAT6A, Homo sapiens, UniProt Q92794, residues 1-85)
Setting: 8-mer, flanks averaged, mean of 2 arrays, mostly near background
Construct (chain): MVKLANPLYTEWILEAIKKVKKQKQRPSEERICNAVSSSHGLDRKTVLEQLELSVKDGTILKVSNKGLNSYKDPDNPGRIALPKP
Oligonucleotide	E-score
CTTATCGC	0.137
ACTATCTG	-0.221
GAGGATGC	0.0186
GTGAAGGA	-0.021
CATCGGGG	0.0877
CCGCTAGA	0.178
AACACACA	-0.199
CACGGGGA	0.273
AGGGTGGA	-0.27
CCACCTGA	-0.188
CAAGGGCC	-0.00636
CTCGTAAC	0.115
AAGTAGCT	-0.24
CCACGTTC	-0.112
CAAGGACC	-0.0488
CTGCGGCC	0.348
AACGTATT	-0.0169

Study 3 — method: aptamer microarray, sandwich; form: DNA with 2'F-ANA; medium: in vitro; concentration: 200 nM; added: Cy3 exosite-II aptamer, 400 nM; reading: higher = stronger binding; oligonucleotide: GGTTGGTGTGGTTGG
Target: Prothrombin, mature alpha-thrombin (F2, Homo sapiens, UniProt P00734)
Setting: whole 15-mer aptamer, many near background
Modification	mean fluorescence intensity [a.u.]
2'F-ANA at 3 4 5 6 7 8 11 12 15	149
2'F-ANA at 1 2 4 5 6 7 10 11 15	48
2'F-ANA at 1 4 5 6 9 11 13 14 15	44.8
2'F-ANA at 2 3 10 11 13 15	350
2'F-ANA at 1 4 5 8 10 11 13	65.9
2'F-ANA at 1 2 3 6 9 10 11	59.6
2'F-ANA at 2 6 7 10 11 13	119
2'F-ANA at 3 4 5 6 7 9 10 15	53.8
2'F-ANA at 3 4 6 11 12 14 15	334
2'F-ANA at 5 6 7 11 12 14	55.1
2'F-ANA at 1 4 6 8 10 11 14 15	47
2'F-ANA at 5 10 11 12	50
2'F-ANA at 1 3 7 8 9 11 12 13	435
2'F-ANA at 1 3 4 9 11 15	168
2'F-ANA at 4 5 11 12 13 14 15	44.4
2'F-ANA at 1 2 5 6 7 11 12 13	68.2

Study 4 — method: protein-binding microarray; form: double-stranded DNA, one strand shown; medium: in vitro; concentration: 940 nM top; setting: 60-bp whole probe; added: salmon DNA 0.4 mg/ml; reference: random background probes; reading: higher = stronger binding; shared flanks, not repeated: GCCTAGCAC … GTCTTGATTCGCTTGACGCTGCTG
Target: Interferon regulatory factor 5, full length, phosphomimetic (IRF5, Homo sapiens, UniProt Q13568-2, residues 1-514, S451D/S453D/S456D/S462D)
Oligonucleotide	fitted relative affinity [z-score]
TCACTTTTCTTTACTGAACTGTGCTAG	1.39
GACGATTCCAGTTTCGAAACGTGCTAG	4.7
TTAGATGCCAGTTTCGATTAGTGCTAG	7.53
TTAGTTTTCGACTTTCGGTTAGTGCTA	4.36
GACGGTATTGGTTTCGGGACGTGCTAG	6.47
GACGGACTGGGACTTGGGACGTGCTAG	-0.895
TAAGGTATCGGTATCGGTTAGTGCTAG	9.41
TCAGTAATCGAAATCTTACTGTGCTAG	-0.00416
GACGATATCAGACTGGAGATGTGCTAG	-0.145
GACGATTTCGGGTATCGAGCCGTGCTA	1.18
TTAGGTCTCCTTCTCCTTTGGTGCTAG	0.694
GTCATTCTCAACCCTGGTGCTGTGCTA	1.21
GACGTTATCCTTTTCCTGACGTGCTAG	0.913
TCATTTCTCTGTTCTAGACTGTGCTAG	1.72
TCAATTAGAATTTTCATACTGTGCTAG	0.12
TCATTAATGCTTCTGGAACTGTGCTAG	0.227
TTAGGAATCCTTTTCCTTTAGTGCTAG	-0.206
TTGGTTCTCAGCTTGGGGCAGTGCTAG	0.614
GACCGTTTCGGGACTGGGGACGTGCTA	2.08
TCAATAATTTTTTTCTAACTGTGCTAG	0.639
TCACTCTTGCTTTTTAGACTGTGCTAG	1.29
TTAGGTTTCGGGAGTGGGTTAGTGCTA	7.99
GACGGTATCGGTTCCGGGACGTGCTAG	9.17
CCCAGACTTGATTTTGGTCTGTGCTAG	-0.204
TCAAACATCTACAATGGCACTGTGCTA	-0.0804

Study 5 — method: EMSA with sequencing; form: double-stranded DNA, one strand shown; medium: in vitro; concentration: 10 and 20 nM; reference: negative control set to 0; reading: higher = stronger binding
Target: Hepatocyte nuclear factor 3-alpha (Foxa1, Mus musculus, UniProt P35582, residues 1-468, full length assumed)
Setting: whole designed probe, mean of two concentrations, ends assumed
Construct (chain): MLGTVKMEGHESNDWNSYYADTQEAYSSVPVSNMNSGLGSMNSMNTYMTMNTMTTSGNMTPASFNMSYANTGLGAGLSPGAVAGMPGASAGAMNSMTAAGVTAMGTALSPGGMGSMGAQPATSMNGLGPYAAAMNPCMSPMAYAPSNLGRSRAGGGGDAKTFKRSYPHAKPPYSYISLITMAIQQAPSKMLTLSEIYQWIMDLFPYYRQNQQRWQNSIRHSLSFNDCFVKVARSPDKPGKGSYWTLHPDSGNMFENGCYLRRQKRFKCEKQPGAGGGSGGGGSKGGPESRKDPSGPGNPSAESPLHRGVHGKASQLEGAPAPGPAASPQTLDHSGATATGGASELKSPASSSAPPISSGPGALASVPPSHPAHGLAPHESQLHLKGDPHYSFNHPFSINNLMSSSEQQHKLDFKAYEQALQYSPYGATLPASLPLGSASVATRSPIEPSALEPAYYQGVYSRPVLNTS
Oligonucleotide	normalised bound fraction [ratio]
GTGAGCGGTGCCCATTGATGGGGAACTTCTGGACGCTGTGAAGAAAACAAAACAATGGACTGTCTTTTAATCGTCCTTAAATAGCTCAGTAAAATTTAAACAATGCTTGCATTCTCTGTGTAAACACAGTGACTGATGCCGAGGCCCCTAGGACTGCTTGGAGCTAATGGGATTAATAAGAATGCCTGAGGGTAACATCTATCACAAATTAATGTTTCCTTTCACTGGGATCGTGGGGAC	0.397
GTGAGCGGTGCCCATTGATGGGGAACATCACTGGTTCTCAAAGCAAAGTTTACAAAGACCAGGGTCATCCTGAGAGTATGTGGGCAGATTACATGGTGCACTTGACCCTTGCTCCTTTGTGTTTACACAGGCAGAGTCAGGCCAGACTACATGCCAGGGTGACCTTAAGAGAGAAAAGAGGCCAGGCATGGTGGCTCATACCTGTAATCCTAGCACTTTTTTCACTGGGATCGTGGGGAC	0.405
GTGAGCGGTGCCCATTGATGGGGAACTTTTCTTCTGGAAATTTACTATATGTAAAAAAGAAGGCAGGAAGGGAATTAAAGGAAAAAGTCCATTCTTCTGATGGCCTTTAAGTATCAAAGTAAACAGAAAATAACCTATTCCAACTACTGTTCCCATTGCTAAAATTGTCTTTTATAAATTTAAGAAAAAATATTAGTAGCAAACATATGATGCAAAGGATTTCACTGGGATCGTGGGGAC	0.349
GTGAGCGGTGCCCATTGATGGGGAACCAACCAAGCAGTATTAGAGCAAATAAGCAAATTCCTCAGTTGAGAGTTAATCTTGCAAACATCCTGCTGTAGGGAAAGGTCATGGCCTGATCTGTAAACACGGGAAGAGAGCCATTGGACTTGGGAATCAGATGCAGCCTCACACGGCTGCAGACCGCAAGACTCATCCTAGACACAGCTTATGTCACTGTGATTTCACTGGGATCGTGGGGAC	0.203
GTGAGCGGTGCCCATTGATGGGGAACCTGACAGCATGATTTAATGGCCTGGTTGCTCCATGAGTTGACATGGCAACCACAGAAAATGCCATAAATATCTGAGTGTGGACGTGAATGCTATGTTTACATTGTGTGTGGTGCATTGTGTGACATGTGGTGGCTGTTGTCTCTTCCAGTTGGAAACGTCTGGAATTGACAGCCATGTTTTAGAGCCATTTGGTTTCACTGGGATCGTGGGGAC	0.459
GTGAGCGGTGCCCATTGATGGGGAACGGCTCCAAACGGCTGAATCAGCATTTTCAGAAACAAAGTGTTCTAGGCCTGGCCTTTTAAACAGTTGTGCAATGCAGCAACGAGCAAAACGCATATTTACTCACGAGCTCTCCTTGTTTTGGTCTTTCCCCCCTCCCCCCCATCTCTTGAATGAAACTGGGCACCAAGTTTGCAAGAAAATATTCTTTCAAACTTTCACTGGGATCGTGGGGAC	0.106

A few entries again (study 4):
Oligonucleotide	fitted relative affinity [z-score]
GACGTTATCCTTTTCCTGACGTGCTAG	0.913
TCATTTCTCTGTTCTAGACTGTGCTAG	1.72
TCAATTAGAATTTTCATACTGTGCTAG	0.12
TCATTAATGCTTCTGGAACTGTGCTAG	0.227
TTAGGAATCCTTTTCCTTTAGTGCTAG	-0.206
TTGGTTCTCAGCTTGGGGCAGTGCTAG	0.614
GACCGTTTCGGGACTGGGGACGTGCTA	2.08
